{"data": "Measurements gathered from unrelated publications", "organism": "Enterococcus faecium", "note": "Lines come from different studies, so protocols differ."}
{"SMILES": "C[N+](C)(C)CCCN", "test system": "VanA VRE ATCC BAA-2317", "conditions": "no LTA", "MIC": "> 800 µg/mL"}
{"SMILES": "CN[C@H](CC(C)C)C(=O)N[C@H]1C(=O)N[C@@H](CC(N)=O)C(=O)N[C@H]2C(=O)N[C@H]3C(=O)N[C@H](C(=O)N[C@H](C(=O)O)c4cc(O)cc(O)c4-c4cc3ccc4O)[C@H](O)c3ccc(c(Cl)c3)Oc3cc2cc(c3O[C@@H]2O[C@H](CO)[C@@H](O)[C@H](O)[C@H]2O[C@H]2C[C@](C)(N)[C@H](O)[C@H](C)O2)Oc2ccc(cc2Cl)[C@H]1O", "test system": "Enterococcus faecium", "conditions": "40 strains", "MIC": "1.71 µg/mL"}
{"SMILES": "C/C=C(\\C)c1cc(OC(=O)c2c(O)c(C)c(O)c(Cl)c2/C(C)=C/C)c(C)c(O)c1C(=O)O", "test": "broth microdilution", "test system": "35682", "MIC": "> 64 µg/mL"}
{"SMILES": "Cc1ccc(CCC(=O)Nc2nnc(S(N)(=O)=O)s2)cc1", "test system": "NR-31933", "MIC": "0.184 µM"}
{"SMILES": "Cn1c(SCc2ccc(Cl)cc2)nnc1-c1cncc(C#Cc2ccccc2)c1", "test system": "vancomycin-resistant", "how to read": "no activity at value", "MIC": "≥ 20 µg/mL"}
{"SMILES": "c1ccc(OCCn2c(CNC34CC5CC(CC(C5)C3)C4)nc3ccccc32)cc1", "test system": "ATCC 19434", "MIC": "> 128 µg/mL"}
{"SMILES": "C/C=C(\\C)c1cc(O)c(C)c(OC(=O)c2c(C)cc(O)c(Cl)c2O)c1", "test": "broth microdilution", "test system": "36711", "MIC": "8 µg/mL"}
{"SMILES": "CC(=O)NC[C@H]1CN(c2ccc(N3CCOCC3)c(F)c2)C(=O)O1", "test system": "HM-970", "MIC": "2.96 µM"}
{"SMILES": "C/C=C(\\C)c1cc(O)c(C)c(OC(=O)c2c(C)c(Cl)c(O)c(Cl)c2O)c1", "test": "broth microdilution", "test system": "36711", "MIC": "8 µg/mL"}
{"SMILES": "CCCCCCC#Cc1cncc(-c2nnc(SCc3ccc(Cl)cc3)n2C2CC2)c1", "test system": "vancomycin-resistant", "how to read": "no activity at value", "MIC": "≥ 20 µg/mL"}
{"SMILES": "C/C=C(\\C)c1cc(OC(=O)c2c(C)c(Cl)c(O)c(Cl)c2O)c(C)c(O)c1C(=O)O", "test": "broth microdilution", "test system": "36711", "MIC": "> 64 µg/mL"}
{"SMILES": "CCCCN(C(=O)Nc1cc(-c2ccc(Cl)c(Cl)c2)sc1C(=O)O)c1ccccc1", "test system": "DSM 20477", "conditions": "with: folic acid 50 ng/mL", "MIC": "16 to 32 µM"}
{"SMILES": "CC1(C)S[C@@H]2[C@H](NC(=O)[C@H](N)c3ccccc3)C(=O)N2[C@H]1C(=O)O", "test": "broth microdilution", "test system": "36235", "MIC": "> 64 µg/mL"}
{"SMILES": "O=[N+]([O-])c1ccc2[nH]c(CNCC34CC5CC(CC(C5)C3)C4)nc2c1", "test system": "ATCC 19434", "MIC": "> 128 µg/mL"}
{"SMILES": "CC(=O)NC[C@H]1CN(c2ccc(N3CCOCC3)c(F)c2)C(=O)O1", "test system": "-9, vancomycin-intermediate", "MIC": "4 µg/mL"}
{"note": "Excerpt of the above:"}
{"SMILES": "C/C=C(\\C)c1cc(O)c(C)c(OC(=O)c2c(C)cc(O)c(Cl)c2O)c1", "test": "broth microdilution", "test system": "36711", "MIC": "8 µg/mL"}
